Results collected from several papers.
A part holds a random share of what one study measured. Substitutions count along the parent as printed.

Series 1 — technique: RNA Bind-n-Seq; form: RNA; medium: in vitro; concentration: 100 nM; reference: input RNA pool; reading: higher = stronger binding
Target: RING finger protein unkempt homolog, zinc fingers 1-6, SBP tag (UNK, Homo sapiens, UniProt Q9C0B0, residues 30-357)
UniProt Q9C0B0, sequence (30-357, looked up): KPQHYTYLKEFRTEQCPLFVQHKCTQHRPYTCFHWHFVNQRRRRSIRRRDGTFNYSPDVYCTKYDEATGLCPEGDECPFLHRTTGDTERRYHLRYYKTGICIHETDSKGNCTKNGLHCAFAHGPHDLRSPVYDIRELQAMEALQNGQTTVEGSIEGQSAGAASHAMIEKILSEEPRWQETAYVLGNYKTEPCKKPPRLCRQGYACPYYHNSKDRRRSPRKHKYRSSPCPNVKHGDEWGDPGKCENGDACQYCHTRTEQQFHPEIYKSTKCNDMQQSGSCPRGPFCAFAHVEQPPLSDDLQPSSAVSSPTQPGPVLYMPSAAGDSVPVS
Notes: RNA with constant flanks, vertebrate orthologous sites, ends assumed
Shared flanks, not repeated: GGGAGUUCUACAGUCCGACGAUC … CAACAGAGGAUUGAGCAUCA
Strand	bound/input enrichment [ratio]
GUGGCACCCACUGUGAGAGGGAGUAGGGGGAGCCCAGGAUGACCCUCGGCUGUUCCAGUUAAGUAUUUUUUCUUUUUUUAAAAUUACUGUAUUUAUUAUGACGAUGGUGACUCCCCAGUG	0.492
UUCUGUACGGUGCAGAGUCUUCUGUACCAGUGUUCAUCCCUUCUUCAUACCAACUGUCCUUAGUAAUAGGAAUUUAAUAUUUUUAAAAGUUUCACAUUGCUGUAUAUUCAAAGAUUUGUU	0.799
CCCUCUGAACCCCAUAUCUUCUGUUUCAUAGUGCAGAAGUGUUCUUUUCAAUUGUAUUAUUAGUGGACUUGUUUAAUUUUAGAGAAACUUUCAGUACAGAUACUGUGAGCUUACAUGGAA	1.71
CUUUAUGGGCCUCGAAGGGUUGAAAUAAUGGAAGAAGACAGUGAACAGUAACCUUCAAUUUAGUAUUUAUGCCUAGGUGUGAUAUAAAUGUGUGUAUGUGGUGGUUUUUUUUUUUUGUUU	3.63
CUACUAUAAACAACUCAGGGCAGUAUUCUCGAUAUCCUUACAGUAAUCUAAAUCAGGGAUUAGUUAACAAUACAGGGAUGAAUCAAAAUUUAGGCCUUACAAAUAAUACUCCAAUGAAUC	1.67
UAUCUUUAGGAUGAAGCUCUUACAUCAGGUGUCACGAGUCUGGAGAACAGAUGGGUUGACCAGUUGUAUUUACAAAUUACUCUCUGUGGAUUAUAAUCCUUUGUAUACCAACAUCACAGU	0.212
CAGAGCAGUUACCUAGUUCGGAGCAGGCCCUACAGGGAUAUUUCGGUUCAGGCAGCGAAGCGGAUGUAUCCUACCAGCAGGAACCAUCCCAUCAGCCCUCCGUGUCCUGCAACCCCUCCA	0.492
CAUCUCUCGUUUUAUAUGUCAAAAAAGGCUUUGAAUUUUUAAAAAAUUGCUAGUUUUGAUUAGCUCUACCUUCAUGAAGUGUUAUAAUUCACCACAAACAGAUAUCUGUCUGAAUUACUU	0.369
GCUCUAGUUCUUAAGAACCAACACUUGUAAGAGAUUUAGAAAAAAGUUUACAACAUAAUCUAGUUUACCGAAGGAGCCUUGUGCUAGAAUACUUUUUAAAAAGUAUUUUUGAAUACUAUU	0.554
UCCUCAACUUGUUCUAGCUUGUGAUCCUUCAAAGUUGGGCCAGGCAUUAGUGCUAGGUACUACAAAAUUGUAUUUUGCCGUUGCCACAGAUGAGAGAGCUAGGUAUUAAAAACAAUAAAG	0.656
UUUUAUUGUACUUGGAAAAAUCUUAGUUUUAAACUAGUCACGGUGAUAACUAGUCUGUGCUAGUGGAAUCAUUUACUCUUACCUUUUAAAUUAUCUUCUCUGUCUGAUACCUGAAACCGU	1.25

Series 2 — technique: DHFR PCA, deep sequencing; medium: yeast; added: (+)-ABA 17 µM; reference: wild-type fitted maximum; reading: higher = stronger binding
Target: ABI1, truncated, D143A, DHFR fusion (Arabidopsis thaliana)
Notes: methotrexate growth selection, single substitutions
Starting sequence: PYL1, truncated, DHFR fusion (Arabidopsis thaliana); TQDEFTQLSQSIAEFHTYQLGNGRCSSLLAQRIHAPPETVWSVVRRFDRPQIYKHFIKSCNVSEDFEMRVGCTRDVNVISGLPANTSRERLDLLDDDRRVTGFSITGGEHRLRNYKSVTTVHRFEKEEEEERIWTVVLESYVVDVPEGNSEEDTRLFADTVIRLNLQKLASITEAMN; partner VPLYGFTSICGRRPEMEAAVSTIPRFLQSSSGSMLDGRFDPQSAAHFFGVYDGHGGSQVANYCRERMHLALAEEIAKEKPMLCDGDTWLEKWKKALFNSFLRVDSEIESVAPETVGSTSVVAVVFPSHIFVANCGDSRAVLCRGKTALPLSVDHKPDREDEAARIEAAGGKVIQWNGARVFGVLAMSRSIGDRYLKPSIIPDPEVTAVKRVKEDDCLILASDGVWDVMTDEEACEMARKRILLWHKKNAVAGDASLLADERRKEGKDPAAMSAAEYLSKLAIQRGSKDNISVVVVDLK
Variant	relative binding score
V137I	62.7%
V70F	2.73%
V70D	23.5%
C25D	-6.75%
A84T	11%
G81I	-2.49%
L91R	-13.5%

Series 3 — target: CCNA1, cyclin fold, Cln2 fusion (human); technique: yeast growth competition, sequencing; medium: yeast; notes: weak parent motif; reference: not given; reading: higher = stronger binding
Starting sequence: PKN2 docking peptide (human); VSAVQKLDFSDTM; partner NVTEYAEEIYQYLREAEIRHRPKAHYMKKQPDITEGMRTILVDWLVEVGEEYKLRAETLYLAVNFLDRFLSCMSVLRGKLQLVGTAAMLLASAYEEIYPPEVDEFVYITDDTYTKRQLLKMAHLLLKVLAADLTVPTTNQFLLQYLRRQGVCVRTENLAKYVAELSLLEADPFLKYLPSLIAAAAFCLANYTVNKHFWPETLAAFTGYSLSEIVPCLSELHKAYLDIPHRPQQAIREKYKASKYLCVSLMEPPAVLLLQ
Variant	normalised enrichment score
S10F	-0.174
D11K	0.251
V1R	0.144
L7P	0.0931
A3M	0.185
D8C	0.255
V4D	0.213
K6T	0.195
F9Q	0.231
D11F	0.0662
V1T	0.112
K6G	0.317
V1P	0.351
D8Q	0.185
S2P	0.145

Further values, each from its own experiment
Molecule	target	assay	system	conditions	scale	endpoint	value
PhoQ, residues 284 288 289 292 302 303 HSYLQF	PhoP, residues 12 14 15 18 19 LHSVW (Escherichia coli, UniProt P23836)	Sort-seq, refers to: YFP reporter	E. coli	PhoQ-PhoP variant library, added: 10 µM Mg2+	reference: high Mg2+ state, higher = stronger signaling	fold induction	1.15

Repeated from above (series 1):
Strand	bound/input enrichment [ratio]
UUCUGUACGGUGCAGAGUCUUCUGUACCAGUGUUCAUCCCUUCUUCAUACCAACUGUCCUUAGUAAUAGGAAUUUAAUAUUUUUAAAAGUUUCACAUUGCUGUAUAUUCAAAGAUUUGUU	0.799
UCCUCAACUUGUUCUAGCUUGUGAUCCUUCAAAGUUGGGCCAGGCAUUAGUGCUAGGUACUACAAAAUUGUAUUUUGCCGUUGCCACAGAUGAGAGAGCUAGGUAUUAAAAACAAUAAAG	0.656
CCCUCUGAACCCCAUAUCUUCUGUUUCAUAGUGCAGAAGUGUUCUUUUCAAUUGUAUUAUUAGUGGACUUGUUUAAUUUUAGAGAAACUUUCAGUACAGAUACUGUGAGCUUACAUGGAA	1.71
GUGGCACCCACUGUGAGAGGGAGUAGGGGGAGCCCAGGAUGACCCUCGGCUGUUCCAGUUAAGUAUUUUUUCUUUUUUUAAAAUUACUGUAUUUAUUAUGACGAUGGUGACUCCCCAGUG	0.492
CUUUAUGGGCCUCGAAGGGUUGAAAUAAUGGAAGAAGACAGUGAACAGUAACCUUCAAUUUAGUAUUUAUGCCUAGGUGUGAUAUAAAUGUGUGUAUGUGGUGGUUUUUUUUUUUUGUUU	3.63
